Published values from different studies.
Protocols differ between the studies behind these lines.

`CCNc1n[n+]([O-])c2cc3c(cc2[n+]1[O-])CCC3` gave an MIC of 2.5 µg/mL (Mycobacterium tuberculosis; ATCC 35822, isoniazid-resistant; 168 h).
The MIC of `O=C(OCc1ccccc1)c1csc(-c2ccccc2)n1` is reported as 4 to 34 µM (Mycobacterium tuberculosis; clinical, drug-sensitive, MDR and XDR).
For `Clc1ccc(-c2cc(CNC34CC5CC(CC(C5)C3)C4)no2)s1`, the EC50 was 100 to 200 nM (Influenza A virus; viral replication, plaque; A/Switzerland/9715293/2013 (H3N2), amantadine-resistant).
`YLIALAVCQV`: “relative binding concentration” 10 to 16 fold (HLA-A2; flow cytometry; peptide, T2 cells; concentration not given; relative to: cpd over flu peptide).
For `O=C(NC1CCCCCCC1)c1ccc2ccccc2c1`, the MIC was 6.55 µM (Mycobacterium tuberculosis; microbial growth, resazurin; H37RV).
The MIC of `O=C(OCc1ccccc1)c1coc(-c2ccccc2)n1` is reported as 1 to 9 µM (Mycobacterium tuberculosis; clinical, drug-sensitive, MDR and XDR).

A few entries again:
The MIC of `O=C(OCc1ccccc1)c1coc(-c2ccccc2)n1` is reported as 1 to 9 µM (Mycobacterium tuberculosis; clinical, drug-sensitive, MDR and XDR).
